Measured values gathered from unrelated publications.
Compare with care: the assays were run in different laboratories. Numbers after ± are the reported error.

| Structure (SMILES) | assay | system | setting | tissue uptake |
| --- | --- | --- | --- | --- |
| CCCC[C@H](NC(=O)CNC(=O)CNC(=O)CN1CCN(CC(=O)O)CCN(CC(=O)O)CCN(CC(=O)O)CC1)C(=O)N[C@H]1CC(=O)NCCCC[C@@H](C(N)=O)NC(=O)[C@H](Cc2c[nH]c3ccccc23)NC(=O)[C@H](CCCNC(=N)N)NC(=O)[C@@H](Cc2ccccc2)NC(=O)[C@H](Cc2c[nH]cn2)NC1=O [copper-64 labelled] | – | C57 mouse B16/F1 melanoma, pancreas | 0.5 h | 1.34 ± 0.28 %ID/g |
| O=C(O)C1CN(Cc2ccc(-c3noc(-c4ccc(OCC[18F])c(C(F)(F)F)c4)n3)cc2)C1 | – | male Sprague-Dawley rat, lung | intravenous, 5 min | 0.753 ± 0.097 %ID/g |
| CCCC[C@H](NC(=O)CNC(=O)CNC(=O)CN1CCN(CC(=O)O)CCN(CC(=O)O)CC1)C(=O)N[C@H]1CC(=O)NCCCC[C@@H](C(N)=O)NC(=O)[C@H](Cc2c[nH]c3ccccc23)NC(=O)[C@H](CCCNC(=N)N)NC(=O)[C@@H](Cc2ccccc2)NC(=O)[C@H](Cc2c[nH]cn2)NC1=O [copper-64 labelled] | – | female C57 mouse, B16/F1 melanoma, liver | intravenous, 0.037 MBq, 0.5 h | 1.1 ± 0.18 %ID/g |
| NC12CNCCNCC(NCc3ccc(CNC(=O)CCCC(=O)NCc4ccc(-c5nncnn5)cc4)cc3)(CNCCNC1)CNCCNC2.[64Cu+2] | – | athymic nude mice SW1222 xenograft, kidney | 4 h post injection, 24 h accumulation interval, together with: huA33-TCO pretargeting | 2.77 ± 0.57 %ID/g |
| O=C([O-])CN1CCN(CC(=O)[O-])CCN(CC(=O)NCCc2ccc3c(c2)C2C=CCC2C(c2cc4c(cc2Br)OCO4)N3)CCN(CC(=O)[O-])CC1.[111In+3] (centres unmarked) | – | mouse, Hec50 endometrial tumour, kidneys | 4 h post injection | 1.74 ± 0.46 %ID/g |
| CC(C)[C@H](NC(=O)[C@@H]1CCCN1C(=O)[C@H](CCCNC(=N)N)NC(=O)[C@H](CS)NC(=O)[C@H](Cc1c[nH]c2ccccc12)NC(=O)[C@H](CCCNC(=N)N)NC(=O)[C@@H](Cc1ccccc1)NC(=O)[C@H](Cc1c[nH]cn1)NC(=O)[C@H](CCC(=O)O)NC(=O)[C@H](CS)NC(=O)[C@H](CS)NC(=O)[C@@H]1CC(=O)N[C@@H](CCCNC(=N)N)C(=O)NCC(=O)N[C@@H](CC(=O)O)C(=O)N[C@H](Cc2ccc(O)cc2)C(=O)N1)C(N)=O [technetium-99m labelled] | – | C57 mouse, female, B16/F1 melanoma, heart | intravenous, 0.037 MBq, 2 h | 0.7 ± 0.15 %ID/g |
| O=C([O-])c1cccc(CN(CCN(Cc2cn(Cc3ccccc3)nn2)Cc2cccc(C(=O)[O-])n2)Cc2cn(Cc3ccccc3)nn2)n1.[64Cu+2] | – | nude athymic mice, healthy, femur | intravenous, 24 h, 64Cu label | 1.88 %ID/g |
| C[C@H](CN(C)Cc1ccccc1)NC(=O)c1ccc(-c2noc(C(F)(F)[18F])n2)cc1 | PET imaging | female Sprague-Dawley rats, cerebellum | intravenous, 10 min | 1.91 ± 0.89 SUV |
| CC(C)[C@H](NC(=O)[C@@H]1CCCN1C(=O)[C@H](CCCNC(=N)N)NC(=O)[C@H](CS)NC(=O)[C@H](Cc1c[nH]c2ccccc12)NC(=O)[C@H](CCCNC(=N)N)NC(=O)[C@@H](Cc1ccccc1)NC(=O)[C@H](Cc1c[nH]cn1)NC(=O)[C@H](CCC(=O)O)NC(=O)[C@H](CS)NC(=O)[C@H](CS)NC(=O)CNC(=O)[C@@H]1CC(=O)N[C@@H](CCCNC(=N)N)C(=O)NCC(=O)N[C@@H](CC(=O)O)C(=O)N[C@H](Cc2ccc(O)cc2)C(=O)N1)C(N)=O [technetium-99m labelled] | – | C57 mouse, female, B16/F1 melanoma, lung | intravenous, 0.037 MBq, 24 h | 0.34 ± 0.11 %ID/g |
| CCCC[C@H](NC(=O)CNC(=O)CNC(=O)CN1CCN(CC(=O)O)CCN(CC(=O)O)CCN(CC(=O)O)CC1)C(=O)N[C@H]1CC(=O)NCCCC[C@@H](C(N)=O)NC(=O)[C@H](Cc2c[nH]c3ccccc23)NC(=O)[C@H](CCCNC(=N)N)NC(=O)[C@@H](Cc2ccccc2)NC(=O)[C@H](Cc2c[nH]cn2)NC1=O [lead-203 labelled] | – | C57 mouse, brain | intravenous, 0.056 MBq, 2 h | 0.05 ± 0.01 %ID/g |
| CCCC[C@@H]1NC(=O)[C@@H](NC(=O)[C@H](CCC(=O)O)NC(=O)CNC(=O)CN2CCN(CC(=O)O)CCN(CC(=O)O)CCN(CC(=O)O)CC2)CCCCNC(=O)C[C@@H](C(N)=O)NC(=O)[C@H](C(C)C)NC(=O)[C@@H]2CCCN2C(=O)[C@H](CCCNC(=N)N)NC(=O)CNC(=O)[C@H](Cc2c[nH]c3ccccc23)NC(=O)[C@H](CCCNC(=N)N)NC(=O)[C@@H](Cc2ccccc2)NC(=O)[C@H](Cc2c[nH]cn2)NC(=O)[C@H](CCC(=O)O)NC1=O [gallium-67 labelled] | – | C57 mice with B16/F1 melanoma, liver | intravenous, 0.5 h | 0.69 ± 0.27 %ID/g |
| O=C([O-])CN1CCN(CC(=O)[O-])CCN(CC(=O)[O-])CCN(CC(=O)[O-])CC1.[64Cu+2] | – | healthy athymic nude mice, skin | intravenous, 4 h | 0.34 %ID/g |
| CN(C)c1ccc(-c2nc3ccc(OCCCCCN4CCN5CCN(CC4)CC(=O)[O][Al]([18F])[O]C(=O)C5)cc3s2)cc1 | – | ICR mouse, lung | intravenous, 2 min | 15.6 ± 3.18 %ID/g |
| OCc1cn(Cc2ccc(-c3noc(-c4ccc(OCC[18F])c(C(F)(F)F)c4)n3)cc2)nn1 | – | female Lewis rat, kidney | intravenous, 120 min | 1.62 ± 0.09 %ID/g |

Repeated from above:
| Structure (SMILES) | assay | system | setting | tissue uptake |
| --- | --- | --- | --- | --- |
| CCCC[C@@H]1NC(=O)[C@@H](NC(=O)[C@H](CCC(=O)O)NC(=O)CNC(=O)CN2CCN(CC(=O)O)CCN(CC(=O)O)CCN(CC(=O)O)CC2)CCCCNC(=O)C[C@@H](C(N)=O)NC(=O)[C@H](C(C)C)NC(=O)[C@@H]2CCCN2C(=O)[C@H](CCCNC(=N)N)NC(=O)CNC(=O)[C@H](Cc2c[nH]c3ccccc23)NC(=O)[C@H](CCCNC(=N)N)NC(=O)[C@@H](Cc2ccccc2)NC(=O)[C@H](Cc2c[nH]cn2)NC(=O)[C@H](CCC(=O)O)NC1=O [gallium-67 labelled] | – | C57 mice with B16/F1 melanoma, liver | intravenous, 0.5 h | 0.69 ± 0.27 %ID/g |
| CCCC[C@H](NC(=O)CNC(=O)CNC(=O)CN1CCN(CC(=O)O)CCN(CC(=O)O)CC1)C(=O)N[C@H]1CC(=O)NCCCC[C@@H](C(N)=O)NC(=O)[C@H](Cc2c[nH]c3ccccc23)NC(=O)[C@H](CCCNC(=N)N)NC(=O)[C@@H](Cc2ccccc2)NC(=O)[C@H](Cc2c[nH]cn2)NC1=O [copper-64 labelled] | – | female C57 mouse, B16/F1 melanoma, liver | intravenous, 0.037 MBq, 0.5 h | 1.1 ± 0.18 %ID/g |
